Results pooled from the literature.
A part holds a random share of what one study measured. Several values in a cell are separate wells, animals, samples, runs or records.
UniProt P29376, sequence (whole entry, looked up): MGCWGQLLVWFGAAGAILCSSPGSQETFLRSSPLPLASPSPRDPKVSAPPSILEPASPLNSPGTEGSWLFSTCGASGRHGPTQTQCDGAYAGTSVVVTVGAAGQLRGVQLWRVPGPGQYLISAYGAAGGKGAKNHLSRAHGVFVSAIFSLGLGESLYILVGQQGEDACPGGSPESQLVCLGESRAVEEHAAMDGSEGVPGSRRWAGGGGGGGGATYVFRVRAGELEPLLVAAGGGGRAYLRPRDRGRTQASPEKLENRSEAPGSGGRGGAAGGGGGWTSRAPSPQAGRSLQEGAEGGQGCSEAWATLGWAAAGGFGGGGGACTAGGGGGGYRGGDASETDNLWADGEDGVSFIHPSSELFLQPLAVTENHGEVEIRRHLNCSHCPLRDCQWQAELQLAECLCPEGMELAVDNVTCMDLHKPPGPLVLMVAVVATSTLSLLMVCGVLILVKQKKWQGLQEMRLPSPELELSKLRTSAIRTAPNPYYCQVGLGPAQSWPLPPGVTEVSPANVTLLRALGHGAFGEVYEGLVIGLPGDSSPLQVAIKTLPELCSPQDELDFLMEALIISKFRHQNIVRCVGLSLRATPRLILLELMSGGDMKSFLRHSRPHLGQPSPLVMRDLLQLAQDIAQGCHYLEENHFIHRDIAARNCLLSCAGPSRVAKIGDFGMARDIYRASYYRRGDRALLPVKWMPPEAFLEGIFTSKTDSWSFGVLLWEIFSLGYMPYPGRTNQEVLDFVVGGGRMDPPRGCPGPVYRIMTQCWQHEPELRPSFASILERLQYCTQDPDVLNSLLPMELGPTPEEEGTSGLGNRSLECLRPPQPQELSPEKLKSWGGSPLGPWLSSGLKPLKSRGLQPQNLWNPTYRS

Study 1
Structure (SMILES): CC(C)(C)n1nc(-c2ccc(Cl)cc2)c2c(N)ncnc21
Target: Receptor-interacting serine/threonine-protein kinase 3 (RIPK3, Homo sapiens, UniProt Q9Y572)
UniProt Q9Y572, sequence (whole entry, looked up): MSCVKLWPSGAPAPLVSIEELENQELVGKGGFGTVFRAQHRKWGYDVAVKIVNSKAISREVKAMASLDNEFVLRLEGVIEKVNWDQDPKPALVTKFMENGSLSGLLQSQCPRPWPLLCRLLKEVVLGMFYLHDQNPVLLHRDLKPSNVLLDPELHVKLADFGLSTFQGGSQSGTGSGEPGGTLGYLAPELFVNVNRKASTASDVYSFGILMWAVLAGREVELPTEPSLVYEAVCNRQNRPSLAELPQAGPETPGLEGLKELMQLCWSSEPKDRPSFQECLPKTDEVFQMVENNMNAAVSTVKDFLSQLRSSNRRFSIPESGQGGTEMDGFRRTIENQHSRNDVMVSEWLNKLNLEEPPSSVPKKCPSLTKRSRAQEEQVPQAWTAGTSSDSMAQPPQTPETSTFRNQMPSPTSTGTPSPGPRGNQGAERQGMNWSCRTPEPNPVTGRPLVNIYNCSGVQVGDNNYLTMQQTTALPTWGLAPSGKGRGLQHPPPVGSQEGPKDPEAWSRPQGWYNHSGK
Observed: kinase activity
Action: inhibitor
Method: ADP-Glo
Time: 1 h
500 nM — inhibition: 89.7%.
It gave 63.9% for inhibition (125 nM).
250 nM — inhibition: 78.1%.
31.25 nM — inhibition: 26.3%.
The inhibition was 45.3% (62.5 nM).

Study 2
SMILES: Cc1nc(C)c(C=[N+]([O-])C(C)(C)C)nc1C
Method: footprint test
Species: MPTP-induced Parkinson's disease mouse model
The “corridor crossing time” was 6.41 s and 5.45 s and 5.13 s and 5.26 s and 7.41 s and 5.15 s and 6.6 s (90 mg/kg).
10 mg/kg, trial 1 — “corridor crossing time”: 3.25 s and 4.99 s and 6.18 s and 5.47 s and 5.74 s and 6.07 s and 5.24 s.
For 30 mg/kg, trial 3: “corridor crossing time” read 4.66 s and 7.88 s and 3.95 s and 5.06 s and 4.63 s and 4.03 s and 7.03 s and 5.81 s.
10 mg/kg — “corridor crossing time”: 8.42 s and 4.98 s and 6.37 s and 6.06 s and 5.52 s and 6.07 s and 6.83 s.
It gave 5.1 s and 5.97 s and 7.1 s and 5.87 s and 5.61 s and 4.7 s and 6.31 s for “corridor crossing time” (10 mg/kg, trial 3).

Study 3
SMILES: COc1cc(C(=O)OCCCN2CCCN(CCCOC(=O)c3cc(OC)c(OC)c(OCc4ccc([N+](=O)[O-])cc4)c3)CC2)cc(OC)c1OC
Route: intrathecal
The “licking and flinching duration” was 179 s and 237 s and 229 s and 253 s (male mouse, formalin pain; 10 nmol, 0-10 min).
It gave 261 s and 133 s and 166 s and 158 s for “licking and flinching duration” (female mouse, formalin pain; 10 nmol, 10-45 min).
male mouse, formalin pain; 10 nmol, 10-45 min — “licking and flinching duration”: 184 s and 245 s and 214 s and 314 s.
male mouse, formalin pain; 100 nmol, 0-10 min — “licking and flinching duration”: 196 s and 195 s and 152 s and 157 s.

Study 4
Target: Membrane-associated tyrosine- and threonine-specific cdc2-inhibitory kinase (PKMYT1, Homo sapiens, UniProt Q99640)
Observed: cell-free assay
Method: TR-FRET
Construct (Q99640 1-499): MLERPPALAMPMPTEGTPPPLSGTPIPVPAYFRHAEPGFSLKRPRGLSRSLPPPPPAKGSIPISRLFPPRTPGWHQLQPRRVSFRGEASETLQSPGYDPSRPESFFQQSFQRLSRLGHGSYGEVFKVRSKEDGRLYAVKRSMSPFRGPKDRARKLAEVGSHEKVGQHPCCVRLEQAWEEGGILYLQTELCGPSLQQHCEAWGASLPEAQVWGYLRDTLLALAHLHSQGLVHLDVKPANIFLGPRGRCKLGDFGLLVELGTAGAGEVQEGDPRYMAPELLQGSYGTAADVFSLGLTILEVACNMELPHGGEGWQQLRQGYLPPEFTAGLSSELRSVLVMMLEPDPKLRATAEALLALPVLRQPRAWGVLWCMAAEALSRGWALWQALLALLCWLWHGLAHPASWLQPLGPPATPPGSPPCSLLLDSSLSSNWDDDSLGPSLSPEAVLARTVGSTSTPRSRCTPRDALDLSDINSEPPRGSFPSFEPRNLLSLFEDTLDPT
`Cc1ccc(O)c(C)c1-c1cnc2[nH]c(-c3cnc(N4CCC(CN5CCN(c6cc7c(cc6F)c(N6CCC(=O)NC6=O)nn7C)CC5)CC4)nc3)cc2c1C#N` has an IC50 of 4.7 nM.
For `Cc1ccc(O)c(C)c1-c1cnc2[nH]c(-c3cnc(N4CCC(CN5CCN(c6ccc7c(c6)C(=O)N(C6CCC(=O)NC6=O)C7=O)CC5)CC4)nc3)cc2c1C#N` (stereo not shown), the IC50 was 4.9 nM.
The IC50 of `Cc1ccc(O)c(C)c1-c1cnc2[nH]c(-c3cnc(N4CCC5(CC4)CC(N4CCN(c6ccc(NC7CCC(=O)NC7=O)cc6F)CC4)CO5)nc3)cc2c1C#N` (stereo not shown) is reported as 4.4 nM.
The IC50 of `Cc1ncc(-c2cc3c(C#N)c(-c4c(C)ccc(O)c4C)cnc3[nH]2)cn1` is reported as 1.7 nM.
`Cc1ccc(O)c(C)c1-c1cnc2[nH]c(-c3cnc(N4CCC(CN5CCN(c6cc7c(cc6F)n(C6CCC(=O)NC6=O)c(=O)n7C)CC5)CC4)nc3)cc2c1C#N` (stereo not shown) has an IC50 of 3.5 nM.
`Cc1ccc(O)c(C)c1-c1cnc2[nH]c(-c3ccc(N4CCN(C)CC4)nc3C)nc2c1` has an IC50 of 261 nM.
`Cc1ccc(O)c(C)c1-c1cnc2[nH]c(-c3cnc(N4CCC(CCN5CCN(c6ccc(NC7CCC(=O)NC7=O)cc6F)CC5)CC4)nc3)cc2c1C#N` (stereo not shown) gave an IC50 of 3.1 nM.
The IC50 of `Cc1ccc(O)c(C)c1-c1cnc2[nH]c(-c3cnc(N)nc3)cc2c1C#N` is reported as 2.6 nM.
The IC50 of `Cc1ccc(O)c(C)c1-c1cnc2[nH]c(-c3cnc(N4CCC5(CC4)CC(CN4CCN(c6ccc(NC7CCC(=O)NC7=O)cc6F)CC4)C5)nc3)cc2c1C#N` (stereo not shown) is reported as 5.3 nM.

Study 5
Compound: Cc1ccc2c(c1)OC(O)(C(=O)O)C(=O)N2Cc1ccccc1 (stereo not shown)
Organism: Arabidopsis thaliana
Strain: Col-0
It gave 1.09 cm for hypocotyl length (100 µg/mL, seed germination, repetition mean).
12.5 µg/mL, seed germination, repetition mean — hypocotyl length: 2.03 cm.
100 µg/mL, seed germination, single repetition — hypocotyl length: 1.02 cm and 1.05 cm and 1.17 cm and 1.16 cm.
12.5 µg/mL, seed germination, single repetition — hypocotyl length: 2.02 cm and 2.04 cm and 2.05 cm and 2.03 cm.
It gave 1.82 cm and 1.81 cm and 1.83 cm for hypocotyl length (25 µg/mL, seed germination, single repetition).
It gave 2.04 cm for hypocotyl length (6.25 µg/mL, seed germination, repetition mean).
6.25 µg/mL, seed germination, single repetition — hypocotyl length: 2.03 cm and 2.02 cm and 2.05 cm and 2.04 cm.
50 µg/mL, seed germination, repetition mean — hypocotyl length: 1.64 cm.
It gave 2.08 cm for hypocotyl length (3.125 µg/mL, seed germination, repetition mean).

Study 6
Structure (SMILES): C[C@@H]1CN(c2ccc(-c3cc(C(=O)NCCOCCOCCOCCOCCNC(=O)/C=C/c4[nH]cc(C(=O)N[C@@H](CC(N)=O)c5ccc(F)c(Cl)c5)c4-c4ccc(Cl)cc4F)ccc3F)cc2NC(=O)c2c[nH]c(=O)cc2C(F)(F)F)C[C@H](C)N1C
Observed: thermal unfolding
Method: differential scanning fluorimetry
Concentration: 5.5 µM
Direction: higher = more unfolded
WDR5: WD repeat-containing protein 5 (WDR5, Homo sapiens, UniProt P61964)
DCAF1: DDB1- and CUL4-associated factor 1 (DCAF1, Homo sapiens, UniProt Q9Y4B6)
UniProt Q9Y4B6, sequence (whole entry, looked up): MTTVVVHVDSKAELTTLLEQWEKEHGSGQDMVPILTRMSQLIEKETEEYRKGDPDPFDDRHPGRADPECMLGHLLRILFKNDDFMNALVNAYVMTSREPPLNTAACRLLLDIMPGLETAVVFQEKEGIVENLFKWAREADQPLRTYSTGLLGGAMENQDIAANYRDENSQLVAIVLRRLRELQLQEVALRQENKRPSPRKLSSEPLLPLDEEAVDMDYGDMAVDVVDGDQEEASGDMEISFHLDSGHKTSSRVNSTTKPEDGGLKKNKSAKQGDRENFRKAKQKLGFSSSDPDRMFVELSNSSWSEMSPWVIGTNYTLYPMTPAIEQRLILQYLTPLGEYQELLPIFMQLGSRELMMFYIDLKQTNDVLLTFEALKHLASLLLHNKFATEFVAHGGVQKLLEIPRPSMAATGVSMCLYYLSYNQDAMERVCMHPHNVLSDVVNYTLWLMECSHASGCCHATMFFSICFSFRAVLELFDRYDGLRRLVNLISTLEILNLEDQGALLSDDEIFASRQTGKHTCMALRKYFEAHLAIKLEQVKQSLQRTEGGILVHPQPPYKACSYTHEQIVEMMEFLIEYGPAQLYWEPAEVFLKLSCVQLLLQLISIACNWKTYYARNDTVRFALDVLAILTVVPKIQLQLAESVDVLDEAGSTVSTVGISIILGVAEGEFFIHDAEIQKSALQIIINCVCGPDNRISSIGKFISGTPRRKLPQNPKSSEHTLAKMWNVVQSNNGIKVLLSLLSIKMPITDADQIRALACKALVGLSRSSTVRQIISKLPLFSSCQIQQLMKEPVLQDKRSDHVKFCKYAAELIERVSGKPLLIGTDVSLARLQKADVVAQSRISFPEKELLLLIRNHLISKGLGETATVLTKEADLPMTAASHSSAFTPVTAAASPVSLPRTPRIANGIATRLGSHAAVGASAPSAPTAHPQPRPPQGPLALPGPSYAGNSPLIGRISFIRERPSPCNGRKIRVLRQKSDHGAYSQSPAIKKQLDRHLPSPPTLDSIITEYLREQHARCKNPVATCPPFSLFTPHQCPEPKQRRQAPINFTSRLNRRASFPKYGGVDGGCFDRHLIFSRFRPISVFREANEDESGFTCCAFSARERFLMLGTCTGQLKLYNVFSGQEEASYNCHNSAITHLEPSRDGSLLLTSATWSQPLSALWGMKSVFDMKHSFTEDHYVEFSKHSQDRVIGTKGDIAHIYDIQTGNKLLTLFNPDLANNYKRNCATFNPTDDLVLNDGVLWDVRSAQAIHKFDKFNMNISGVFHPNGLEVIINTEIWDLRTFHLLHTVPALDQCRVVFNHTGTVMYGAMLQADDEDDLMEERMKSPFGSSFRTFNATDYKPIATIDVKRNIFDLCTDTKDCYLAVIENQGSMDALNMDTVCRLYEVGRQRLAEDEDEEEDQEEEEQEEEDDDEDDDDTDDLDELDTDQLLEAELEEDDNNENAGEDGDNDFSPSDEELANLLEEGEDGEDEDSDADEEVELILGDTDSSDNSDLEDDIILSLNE
For WDR5; 32.4 °C: “SYPRO Orange fluorescence” read 12700 a.u.
It gave 47500 a.u. for “SYPRO Orange fluorescence” (DCAF1; 77.61 °C).
The “SYPRO Orange fluorescence” was 12900 a.u. (WDR5; 25.8 °C).
For DCAF1; 94.81 °C: “SYPRO Orange fluorescence” read 29900 a.u.
The “SYPRO Orange fluorescence” was 14200 a.u. (WDR5; 41 °C).
For WDR5; 42.6 °C: “SYPRO Orange fluorescence” read 15000 a.u.
The “SYPRO Orange fluorescence” was 49100 a.u. (DCAF1; 75.81 °C).
The “SYPRO Orange fluorescence” was 15300 a.u. (WDR5; 69.21 °C).
It gave 15900 a.u. for “SYPRO Orange fluorescence” (WDR5; 48.4 °C).
WDR5; 43.4 °C — “SYPRO Orange fluorescence”: 15000 a.u.
WDR5; 55.21 °C — “SYPRO Orange fluorescence”: 16800 a.u.

Study 7
Structure (SMILES): CCN1CCN(Cc2ccc(COc3c(-c4c(C)c(F)cc5[nH]ncc45)c(C4CC4)cc4c(N5C[C@@H]6C[C@H]5CN6)nc(OC5CCOCC5)nc34)cc2)C(=O)C1
Observed: KRAS-RAF interaction
Action: inhibitor
Method: TR-FRET
With: SOS-mediated nucleotide exchange
KRAS G12D with RAF: GTPase KRas, with RAF (KRAS, Homo sapiens, UniProt P01116, G12D)
KRAS with RAF: GTPase KRas, with RAF (KRAS, Homo sapiens, UniProt P01116)
For KRAS G12D with RAF; 3 µM: inhibition read 101%.
For KRAS with RAF; 10 nM: inhibition read -0.809% and -4.49%.
For KRAS with RAF; 30 nM: inhibition read -2.28% and -1.3%.
It gave 97.8% for inhibition (KRAS G12D with RAF; 300 nM).
It gave 11.3% and 9.03% for inhibition (KRAS with RAF; 100 nM).
The inhibition was 100% (KRAS G12D with RAF; 1 µM).
The inhibition was 100% and 102% (KRAS G12D with RAF; 10 µM).

Study 8
SMILES: CCN1/C(=C/C=C2\CCCC(/C=C/C3=[N+](CC)c4ccccc4C3(C)C)=C2NCCCCCCCCN2CCC(Nc3nc4ccccc4n3Cc3ccc(F)cc3)CC2)C(C)(C)c2ccccc21
Cell line: U-87 MG
Concentration: concentration not given
Reference: DMSO
It gave -2.03 for “log2 fold change” (refers to: KIF15 mRNA).
refers to: FAM210A mRNA — “log2 fold change”: 1.19.
The “log2 fold change” was -2.36 (refers to: DAAM2 mRNA).
The “log2 fold change” was 2.13 (refers to: MAFF mRNA).
For refers to: ZWINT mRNA: “log2 fold change” read -1.59.
It gave 1.51 for “log2 fold change” (refers to: PRKG1 mRNA).
It gave 1.38 for “log2 fold change” (refers to: DUSP8 mRNA).
It gave 1.1 for “log2 fold change” (refers to: ZNF674 mRNA).
refers to: GORASP2 mRNA — “log2 fold change”: 0.874.
refers to: RASSF5 mRNA — “log2 fold change”: 1.15.
For refers to: SNX7 mRNA: “log2 fold change” read -0.919.
The “log2 fold change” was -1.74 (refers to: FAM13C mRNA).
refers to: TMEM119 mRNA — “log2 fold change”: -3.09.
The “log2 fold change” was -0.929 (refers to: SSBP4 mRNA).
For refers to: DNAJC9 mRNA: “log2 fold change” read -0.995.
The “log2 fold change” was 0.896 (refers to: MTFR1 mRNA).

Study 9
Structure (SMILES): COCC1CC2C(CCC3C(O)CCC32)c2ccc(O)cc21 (stereo not shown)
It gave 0.817 and 0.871 and 0.826 and 0.855 and 0.872 for “mRNA level ratio” (PANC-1; DNA microarray, refers to: ACTB; 25 µM; reference: untreated cells).
It gave 0.898 for “mRNA level ratio” (A549; DNA microarray, refers to: ACTA2; 25 µM; reference: untreated cells).
It gave 1.14 for “mRNA level ratio” (A549; DNA microarray, refers to: MCM10; 25 µM; reference: untreated cells).
For PANC-1; DNA microarray, refers to: C6; 25 µM; reference: untreated cells: “mRNA level ratio” read 205.
For SK-OV-3; DNA microarray, refers to: C6; 100 µM; reference: untreated cells: “mRNA level ratio” read 352.
The “mRNA level ratio” was 0.95 (SK-OV-3; microarray, refers to: RFC3; 100 µM; reference: untreated).
The “mRNA level ratio” was 2.65 (A549; DNA microarray, refers to: TMEM108; 25 µM; reference: untreated cells).
SK-OV-3; microarray, refers to: SPC25; 100 µM; reference: untreated — “mRNA level ratio”: 0.771.
SK-OV-3; DNA microarray, refers to: MCM10; 25 µM; reference: untreated cells — “mRNA level ratio”: 0.951.
It gave 1 for “mRNA level ratio” (PANC-1; microarray, refers to: OLIG2; 100 µM; reference: untreated).
The “mRNA level ratio” was 0.85 (A549; DNA microarray, refers to: GINS1; 100 µM; reference: untreated cells).
It gave 0.663 for “mRNA level ratio” (A549; microarray, refers to: SPC25; 100 µM; reference: untreated).
It gave 0.966 and 0.965 and 0.937 and 0.953 for “mRNA level ratio” (SK-OV-3; DNA microarray, refers to: KIF20A; 25 µM; reference: untreated cells).
It gave 1.43 and 1.42 and 1.45 and 1.46 for “mRNA level ratio” (PANC-1; DNA microarray, refers to: KIF20A; 100 µM; reference: untreated cells).
SK-OV-3; microarray, refers to: OLIG2; 25 µM; reference: untreated — “mRNA level ratio”: 1.
It gave 0.925 for “mRNA level ratio” (SK-OV-3; DNA microarray, refers to: GINS1; 25 µM; reference: untreated cells).
The “mRNA level ratio” was 1 (A549; DNA microarray, refers to: CCL8; 25 µM; reference: untreated cells).
It gave 103 for “mRNA level ratio” (PANC-1; microarray, refers to: CCL11; 25 µM; reference: untreated).

Further values, each from its own experiment
`COc1cc(-c2nc3ccc(C(=O)NCCCN(C)C)cc3n2C2CCC2)cc(OC)c1OC` gave a receptor occupancy of -4.55% (Leukocyte tyrosine kinase receptor (LTK, Homo sapiens, UniProt P29376); NanoBRET; 1 µM).

Some of these lines once more (study 5):
It gave 1.82 cm and 1.81 cm and 1.83 cm for hypocotyl length (25 µg/mL, seed germination, single repetition).
It gave 2.04 cm for hypocotyl length (6.25 µg/mL, seed germination, repetition mean).
12.5 µg/mL, seed germination, repetition mean — hypocotyl length: 2.03 cm.
100 µg/mL, seed germination, single repetition — hypocotyl length: 1.02 cm and 1.05 cm and 1.17 cm and 1.16 cm.
50 µg/mL, seed germination, repetition mean — hypocotyl length: 1.64 cm.
6.25 µg/mL, seed germination, single repetition — hypocotyl length: 2.03 cm and 2.02 cm and 2.05 cm and 2.04 cm.
12.5 µg/mL, seed germination, single repetition — hypocotyl length: 2.02 cm and 2.04 cm and 2.05 cm and 2.03 cm.
It gave 1.09 cm for hypocotyl length (100 µg/mL, seed germination, repetition mean).
It gave 2.08 cm for hypocotyl length (3.125 µg/mL, seed germination, repetition mean).
